Measurements pooled from the literature.
± gives the spread as reported.
Organism: Influenza A virus

CC1(C)CCC2(C(=O)NCc3ccccc3)CCC3(C)C(=CCC4C5(C)CCC(OC(=O)C6CC(OC(=O)c7ccccc7)CN6C(=O)c6ccccc6)C(C)(C)C5CCC43C)C2C1 (stereo not drawn)  EC50 (viral replication; MDCK, A/WSN/1933 (H1N1); 48 h): > 20 µM
CC(=O)N[C@H]1[C@H]([C@H](O)[C@H](O)CO)OC(C(=O)O)=C(C/C=C/c2ccc(C)cc2)[C@@H]1O  EC50 (viral replication; A/Paris/0497/2007 (H1N1); 72 h): 80 µM
CC1(C)CCC2(C(=O)NCc3ccccc3)CCC3(C)C(=CCC4C5(C)CCC(OC(=O)C6CC(OC(=O)Cc7ccc(O)c(O)c7)CN6C(=O)Cc6ccc(O)c(O)c6)C(C)(C)C5CCC43C)C2C1 (stereo not drawn)  EC50 (viral replication; MDCK, A/WSN/1933 (H1N1); 48 h): > 20 µM
CC(CO)C(=O)OCC(C)C(=O)OCCc1ccc(O)cc1 (stereo not drawn)  inhibition (viral replication, inhibitor; H1N1 WSN; 10 µM): 0%
O=C(Nc1ccccc1SSc1ccccc1NC(=O)c1ccccc1)c1ccccc1  neutralizing antibody titre (A/NWS/33 (H1N1), mouse, serum; oral, 1 mg/mouse/day, day 14; relative to: untreated infected control): 1.7 fold
OCCc1ccc(O)cc1  inhibition (viral replication, inhibitor; H1N1 WSN; 10 µM): 0%
C=CCC1=C(C(=O)O)O[C@@H]([C@H](O)[C@H](O)CO)[C@H](NC(C)=O)[C@H]1O  EC50 (viral replication; A/Paris/908/97 (H3N2); 72 h): > 5000 µM
COc1ccc(C(=O)OC2CC(C(=O)OC3CCC4(C)C(CCC5(C)C4CC=C4C6CC(C)(C)CCC6(C(=O)NCc6ccccc6)CCC45C)C3(C)C)N(C(=O)c3ccc(F)c(F)c3)C2)cc1OC (stereo not drawn)  EC50 (viral replication; MDCK, A/WSN/1933 (H1N1); 48 h): 5.17 ± 1.76 µM
C=C(C)[C@H](O)COc1ccc(CCO)cc1  inhibition (viral replication, inhibitor; H1N1 WSN; 10 µM): 10%
O=C(c1ccc(Cl)cc1Cl)N1CCO[C@@H](c2ccccc2)C1  EC50 (viral replication; 72 h): 100 µM
CC1(C)CCC2(C(=O)NCc3ccccc3)CCC3(C)C(=CCC4C5(C)CCC(OC(=O)C6CC(OC(=O)c7ccc(O)c(O)c7)CN6C(=O)C6CC(O)C(O)C(O)C6)C(C)(C)C5CCC43C)C2C1 (stereo not drawn)  EC50 (viral replication; MDCK, A/WSN/1933 (H1N1); 48 h): 0.92 ± 0.36 µM
COc1ccc(CCO)cc1O  inhibition (viral replication, inhibitor; H1N1 WSN; 10 µM): 6.77%

Some of these lines once more:
C=CCC1=C(C(=O)O)O[C@@H]([C@H](O)[C@H](O)CO)[C@H](NC(C)=O)[C@H]1O  EC50 (viral replication; A/Paris/908/97 (H3N2); 72 h): > 5000 µM
COc1ccc(C(=O)OC2CC(C(=O)OC3CCC4(C)C(CCC5(C)C4CC=C4C6CC(C)(C)CCC6(C(=O)NCc6ccccc6)CCC45C)C3(C)C)N(C(=O)c3ccc(F)c(F)c3)C2)cc1OC (stereo not drawn)  EC50 (viral replication; MDCK, A/WSN/1933 (H1N1); 48 h): 5.17 ± 1.76 µM
